# Results pooled from the literature.
# Numbered parts are unrelated; each lists some results of a single study. Changes are numbered by the printed parent chain.
# UniProt P14416, sequence (whole entry, looked up): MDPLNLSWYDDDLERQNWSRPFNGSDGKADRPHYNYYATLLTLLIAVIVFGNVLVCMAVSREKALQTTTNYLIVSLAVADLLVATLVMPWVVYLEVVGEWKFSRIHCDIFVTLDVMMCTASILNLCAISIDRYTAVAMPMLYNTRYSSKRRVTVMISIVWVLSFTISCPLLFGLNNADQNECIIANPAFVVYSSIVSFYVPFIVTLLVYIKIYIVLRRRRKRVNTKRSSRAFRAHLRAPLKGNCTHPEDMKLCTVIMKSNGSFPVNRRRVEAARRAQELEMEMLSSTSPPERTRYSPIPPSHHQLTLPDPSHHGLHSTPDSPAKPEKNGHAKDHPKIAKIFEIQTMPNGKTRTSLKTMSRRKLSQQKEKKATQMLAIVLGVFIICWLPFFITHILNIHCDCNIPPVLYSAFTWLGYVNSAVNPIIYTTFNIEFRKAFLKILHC

# Set 1
# Target: Prothrombin, mature alpha-thrombin (F2, Homo sapiens, UniProt P00734)
# Method: aptamer microarray, sandwich
# Molecule type: DNA with 2'F-ANA
# Medium: in vitro
# Tested at: 200 nM
# Setting: whole 15-mer aptamer, many near background
# With: Cy3 exosite-II aptamer, 400 nM
# Direction: higher = stronger binding
# Strand: GGTTGGTGTGGTTGG
Modification,mean fluorescence intensity
2'F-ANA at 3 4 5 12 15,239 a.u.
2'F-ANA at 1 4 5 8 10 13 14 15,45.4 a.u.
2'F-ANA at 2 5 8 9 14 15,45 a.u.
2'F-ANA at 2 3 13 14,458 a.u.
2'F-ANA at 4 5 6 7 8 11 12 13,104 a.u.
2'F-ANA at 1 3 5 9 11 12 14,47.8 a.u.
2'F-ANA at 3 4 6 9 10 13,243 a.u.
2'F-ANA at 2 6 7 9 10 11 13 14,72.6 a.u.

# Set 2
# Target: Histone acetyltransferase KAT6A, both winged helices, GST fusion (KAT6A, Homo sapiens, UniProt Q92794, residues 1-181)
# Method: protein binding microarray
# Molecule type: double-stranded DNA, one strand shown
# Medium: in vitro
# Tested at: not given
# Setting: 8-mer, flanks averaged, mean of 2 arrays, mostly near background
# Reference: not given
# Direction: higher = stronger binding
# Residues (chain): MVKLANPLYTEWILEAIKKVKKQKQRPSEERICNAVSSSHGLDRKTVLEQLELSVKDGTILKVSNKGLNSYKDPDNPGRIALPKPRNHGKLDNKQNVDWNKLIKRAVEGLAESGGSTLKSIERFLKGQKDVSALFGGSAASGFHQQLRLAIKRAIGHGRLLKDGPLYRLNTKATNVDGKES
Strand,E-score
AGACATCA,-0.0358
GGTCGGAC,0.113
GAGTAATA,0.0324
GCTGTAAA,-0.127
ACGATAGT,-0.0716
CAGCTGTC,-0.15
GCTTCACC,0.0214
ACTCAAAC,-0.134

# Set 3
# Target: DBP, bZIP domain (human)
# Method: DHFR protein complementation
# Medium: yeast
# Setting: single substitutions, most at no-binding floor
# Reference: wild-type JUN-FOS pair
# Direction: higher = stronger binding
# Starting sequence: JUN, bZIP domain (human); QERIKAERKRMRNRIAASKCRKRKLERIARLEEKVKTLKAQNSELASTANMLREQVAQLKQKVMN; partner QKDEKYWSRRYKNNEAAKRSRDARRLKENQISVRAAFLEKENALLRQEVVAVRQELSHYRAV
Substitution,binding fitness [natural log]
S47V,-1.46
N42Y,-1.47
E32F,-1.48
K34L,-1.37
N42E,-1.49
V56K,-1.6
A29I,-1.26
E33T,-1.42

# Mixed results
SMILES,target,effect on,method,tested at,endpoint,result
CNC(=O)c1cc(C(=O)N[C@H]2[C@@H]3COC[C@@H]32)cc2c1O[C@@H](CF)[C@@H]2c1ccccc1,"D(2) dopamine receptor (DRD2, Homo sapiens, UniProt P14416)",binding,radioligand binding,10 µM,inhibition,-10.2%

# Some of these lines once more (set 3):
Substitution,binding fitness [natural log]
V56K,-1.6
